Assay results of several laboratories.
Compare with care: the assays were run in different laboratories. ± gives the spread as reported.
PIK3CD: Phosphatidylinositol 4,5-bisphosphate 3-kinase catalytic subunit delta isoform (PIK3CD, Homo sapiens, UniProt O00329)
Chain of UniProt O00329 (whole entry, looked up): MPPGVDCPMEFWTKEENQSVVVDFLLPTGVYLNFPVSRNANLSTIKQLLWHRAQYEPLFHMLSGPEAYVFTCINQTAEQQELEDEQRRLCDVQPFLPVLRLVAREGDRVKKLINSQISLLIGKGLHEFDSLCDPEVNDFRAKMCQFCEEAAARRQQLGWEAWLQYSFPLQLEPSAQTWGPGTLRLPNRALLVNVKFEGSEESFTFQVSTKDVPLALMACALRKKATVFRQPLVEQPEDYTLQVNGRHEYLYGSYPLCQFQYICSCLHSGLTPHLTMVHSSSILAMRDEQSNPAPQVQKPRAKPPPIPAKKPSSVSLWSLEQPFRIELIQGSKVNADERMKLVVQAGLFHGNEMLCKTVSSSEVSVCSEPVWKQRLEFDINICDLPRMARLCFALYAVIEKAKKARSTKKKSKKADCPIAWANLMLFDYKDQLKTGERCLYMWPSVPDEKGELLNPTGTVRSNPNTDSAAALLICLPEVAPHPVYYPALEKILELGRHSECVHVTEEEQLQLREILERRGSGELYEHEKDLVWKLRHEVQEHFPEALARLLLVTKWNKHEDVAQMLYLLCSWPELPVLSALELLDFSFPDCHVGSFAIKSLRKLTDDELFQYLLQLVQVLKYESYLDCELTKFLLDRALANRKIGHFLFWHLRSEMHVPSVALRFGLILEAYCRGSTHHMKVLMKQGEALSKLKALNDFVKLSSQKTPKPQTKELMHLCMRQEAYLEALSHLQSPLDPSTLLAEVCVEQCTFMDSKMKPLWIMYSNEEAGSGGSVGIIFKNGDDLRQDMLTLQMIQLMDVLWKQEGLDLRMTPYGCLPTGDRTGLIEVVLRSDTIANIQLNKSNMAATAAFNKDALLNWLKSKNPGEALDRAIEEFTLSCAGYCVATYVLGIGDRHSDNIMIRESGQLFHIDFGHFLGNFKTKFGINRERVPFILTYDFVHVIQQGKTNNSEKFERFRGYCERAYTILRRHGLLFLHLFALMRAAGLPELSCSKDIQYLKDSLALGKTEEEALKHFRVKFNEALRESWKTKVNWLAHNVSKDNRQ
Uncharacterized protein: Uncharacterized protein (Trypanosoma brucei brucei, UniProt Q386Q8)
NTSR1: Neurotensin receptor type 1 (NTSR1, Homo sapiens, UniProt P30989)
Chain of UniProt P30989 (whole entry, looked up): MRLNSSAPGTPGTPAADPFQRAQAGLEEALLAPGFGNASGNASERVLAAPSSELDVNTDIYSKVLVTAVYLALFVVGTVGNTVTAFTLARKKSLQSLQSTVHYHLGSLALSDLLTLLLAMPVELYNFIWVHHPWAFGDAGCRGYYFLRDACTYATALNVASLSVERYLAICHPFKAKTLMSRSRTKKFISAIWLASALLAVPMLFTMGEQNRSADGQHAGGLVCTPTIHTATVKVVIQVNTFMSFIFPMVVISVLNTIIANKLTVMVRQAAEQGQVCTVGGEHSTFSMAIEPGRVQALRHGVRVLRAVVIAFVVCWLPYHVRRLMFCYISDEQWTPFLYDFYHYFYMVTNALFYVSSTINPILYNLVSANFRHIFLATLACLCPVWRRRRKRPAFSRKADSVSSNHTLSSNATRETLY
ppa: Inorganic pyrophosphatase (ppa, Escherichia coli, UniProt P0A7A9)
Chain of UniProt P0A7A9 (whole entry, looked up): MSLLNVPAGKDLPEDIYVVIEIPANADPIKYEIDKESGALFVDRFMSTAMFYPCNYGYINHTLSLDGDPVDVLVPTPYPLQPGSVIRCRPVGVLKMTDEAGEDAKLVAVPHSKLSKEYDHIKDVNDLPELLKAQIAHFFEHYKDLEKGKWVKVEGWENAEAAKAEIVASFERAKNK
Gria1: Glutamate receptor 1 (Gria1, Rattus norvegicus, UniProt P19490)
Chain of UniProt P19490 (whole entry, looked up): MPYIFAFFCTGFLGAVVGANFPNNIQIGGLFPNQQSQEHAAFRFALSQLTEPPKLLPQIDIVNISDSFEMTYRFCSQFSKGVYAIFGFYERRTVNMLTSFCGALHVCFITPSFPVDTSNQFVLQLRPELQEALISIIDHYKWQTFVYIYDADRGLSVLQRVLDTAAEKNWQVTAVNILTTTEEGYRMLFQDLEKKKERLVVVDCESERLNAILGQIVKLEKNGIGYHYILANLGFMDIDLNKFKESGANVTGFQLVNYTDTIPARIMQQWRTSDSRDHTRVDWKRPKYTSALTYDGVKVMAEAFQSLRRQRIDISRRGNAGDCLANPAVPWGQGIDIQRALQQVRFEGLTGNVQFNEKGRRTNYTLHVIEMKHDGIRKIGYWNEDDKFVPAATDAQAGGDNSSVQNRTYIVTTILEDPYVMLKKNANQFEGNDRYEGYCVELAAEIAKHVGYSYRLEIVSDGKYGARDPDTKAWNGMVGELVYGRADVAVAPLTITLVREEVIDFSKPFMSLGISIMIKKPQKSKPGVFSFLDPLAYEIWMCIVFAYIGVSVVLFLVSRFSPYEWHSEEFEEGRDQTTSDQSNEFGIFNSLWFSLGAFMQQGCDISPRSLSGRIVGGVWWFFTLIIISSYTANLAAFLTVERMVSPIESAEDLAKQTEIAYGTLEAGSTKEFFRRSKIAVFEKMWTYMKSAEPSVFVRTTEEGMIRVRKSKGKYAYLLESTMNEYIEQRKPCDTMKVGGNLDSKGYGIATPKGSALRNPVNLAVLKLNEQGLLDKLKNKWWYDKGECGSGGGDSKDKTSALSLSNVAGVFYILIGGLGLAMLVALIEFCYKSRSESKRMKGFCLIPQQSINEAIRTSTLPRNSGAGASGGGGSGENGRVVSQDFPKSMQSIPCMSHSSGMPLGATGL
DNA dC->dU-editing enzyme APOBEC-3B: DNA dC->dU-editing enzyme APOBEC-3B (Homo sapiens, UniProt Q9UH17)
Chain of UniProt Q9UH17 (whole entry, looked up): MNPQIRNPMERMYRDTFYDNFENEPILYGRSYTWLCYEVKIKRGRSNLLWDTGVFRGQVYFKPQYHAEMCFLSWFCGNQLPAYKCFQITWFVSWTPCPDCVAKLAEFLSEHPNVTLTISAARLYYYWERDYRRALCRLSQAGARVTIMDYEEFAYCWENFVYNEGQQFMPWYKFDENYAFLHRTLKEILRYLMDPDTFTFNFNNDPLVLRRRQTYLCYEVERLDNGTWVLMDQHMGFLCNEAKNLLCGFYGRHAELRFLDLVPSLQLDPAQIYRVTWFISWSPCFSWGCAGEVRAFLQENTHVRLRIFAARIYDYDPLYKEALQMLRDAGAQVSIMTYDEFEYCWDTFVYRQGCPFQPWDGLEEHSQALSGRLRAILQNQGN
ADRB2: Beta-2 adrenergic receptor (ADRB2, Homo sapiens, UniProt P07550)
glpG: Rhomboid protease GlpG (glpG, Escherichia coli, UniProt P09391)
Chain of UniProt P09391 (whole entry, looked up): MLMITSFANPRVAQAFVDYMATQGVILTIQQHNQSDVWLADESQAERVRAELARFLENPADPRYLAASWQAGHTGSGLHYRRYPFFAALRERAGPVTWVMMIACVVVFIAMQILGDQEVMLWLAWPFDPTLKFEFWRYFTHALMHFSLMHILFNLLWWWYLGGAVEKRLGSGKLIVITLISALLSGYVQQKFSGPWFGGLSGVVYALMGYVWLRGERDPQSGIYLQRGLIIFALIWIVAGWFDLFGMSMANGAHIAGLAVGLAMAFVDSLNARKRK
NNMT: Nicotinamide N-methyltransferase (NNMT, Homo sapiens, UniProt P40261)
Chain of UniProt P40261 (whole entry, looked up): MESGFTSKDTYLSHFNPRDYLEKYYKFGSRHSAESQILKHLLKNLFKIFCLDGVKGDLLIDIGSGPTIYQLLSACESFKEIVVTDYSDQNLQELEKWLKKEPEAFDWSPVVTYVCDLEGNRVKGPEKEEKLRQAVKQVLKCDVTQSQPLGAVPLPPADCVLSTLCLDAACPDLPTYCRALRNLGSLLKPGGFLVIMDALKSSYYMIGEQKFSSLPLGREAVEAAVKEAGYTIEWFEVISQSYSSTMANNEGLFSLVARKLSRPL
Proteasome component C5/PSMB5: Proteasome component C5/PSMB5 (Homo sapiens, UniProt P20618+P28074)
Chain of UniProt P20618 (whole entry, looked up): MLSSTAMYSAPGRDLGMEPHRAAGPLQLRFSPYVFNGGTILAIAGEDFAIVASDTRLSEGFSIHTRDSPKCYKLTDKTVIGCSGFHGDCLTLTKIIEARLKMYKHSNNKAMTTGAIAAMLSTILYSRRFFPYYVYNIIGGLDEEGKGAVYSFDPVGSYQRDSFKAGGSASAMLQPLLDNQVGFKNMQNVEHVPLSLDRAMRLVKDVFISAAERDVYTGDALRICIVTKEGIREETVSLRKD
Chain of UniProt P28074 (whole entry, looked up): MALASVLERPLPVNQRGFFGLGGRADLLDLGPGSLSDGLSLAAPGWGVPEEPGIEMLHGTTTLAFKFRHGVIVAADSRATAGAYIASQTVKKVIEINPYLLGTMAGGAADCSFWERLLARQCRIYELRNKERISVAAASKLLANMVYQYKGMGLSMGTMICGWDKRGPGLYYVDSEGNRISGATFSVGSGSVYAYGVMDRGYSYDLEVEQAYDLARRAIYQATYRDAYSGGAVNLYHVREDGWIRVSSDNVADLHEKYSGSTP
Chain of UniProt Q13237 (whole entry, looked up): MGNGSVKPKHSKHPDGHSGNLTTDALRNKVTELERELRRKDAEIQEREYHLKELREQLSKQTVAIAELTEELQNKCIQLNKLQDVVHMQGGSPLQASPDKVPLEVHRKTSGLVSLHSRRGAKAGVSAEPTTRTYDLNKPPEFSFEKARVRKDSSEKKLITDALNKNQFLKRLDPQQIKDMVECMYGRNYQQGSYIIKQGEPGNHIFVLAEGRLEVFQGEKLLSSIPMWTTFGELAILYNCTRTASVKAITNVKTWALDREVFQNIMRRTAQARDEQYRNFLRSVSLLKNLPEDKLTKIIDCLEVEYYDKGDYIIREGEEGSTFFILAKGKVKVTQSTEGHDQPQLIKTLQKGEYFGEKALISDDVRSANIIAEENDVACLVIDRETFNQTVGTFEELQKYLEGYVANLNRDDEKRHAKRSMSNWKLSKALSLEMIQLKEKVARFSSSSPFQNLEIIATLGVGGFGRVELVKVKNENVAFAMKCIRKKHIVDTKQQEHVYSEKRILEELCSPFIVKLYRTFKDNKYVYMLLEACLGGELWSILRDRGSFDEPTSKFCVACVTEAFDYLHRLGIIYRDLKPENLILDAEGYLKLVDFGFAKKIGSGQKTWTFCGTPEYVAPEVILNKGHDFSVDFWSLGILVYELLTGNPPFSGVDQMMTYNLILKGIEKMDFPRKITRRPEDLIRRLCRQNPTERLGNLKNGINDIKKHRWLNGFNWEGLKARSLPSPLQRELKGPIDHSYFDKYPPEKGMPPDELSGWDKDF
Chain of UniProt O75365 (whole entry, unmodified, looked up): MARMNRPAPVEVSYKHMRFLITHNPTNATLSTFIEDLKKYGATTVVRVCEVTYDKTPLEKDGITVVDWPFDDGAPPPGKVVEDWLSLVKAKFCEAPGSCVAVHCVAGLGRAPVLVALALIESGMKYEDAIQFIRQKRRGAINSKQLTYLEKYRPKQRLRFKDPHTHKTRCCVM

| SMILES | target or system | assay | test system | setting | how to read | quantity | value |
| --- | --- | --- | --- | --- | --- | --- | --- |
| Cc1ccc(CN2C3(NC(c4ccc(C)cc4)C24C(=O)Nc2ccccc24)C(=O)Nc2ccccc23)cc1 (stereo not drawn) | PIK3CD | enzyme activity, inhibitor, ADP detection | – | – | – | IC50 | 0.882 µM |
| C[N+](C)(CCCN1c2ccccc2CCc2ccc(Cl)cc21)CC(=O)c1ccccc1 | Uncharacterized protein | enzyme activity, inhibitor, coupled colorimetric | – | with: E. coli pyrophosphatase coupling | – | IC50 | 64.3 µM |
| COc1cccc(OC)c1-c1cc(C(=O)NC2(C(=O)O)C3CC4CC(C3)CC2C4)nn1-c1ccc(C(=O)NCCNC(=O)[C@H](CCCCNC(=O)[C@H](CC(C)C)NC(=O)C2OC2C(=O)O)NC(=O)CN2CCN(CC(=O)[O-])CCN(CC(=O)[O-])CCN(CC(=O)[O-])CC2)cc1C(C)C.[Lu+3] (mixture of isomers) | NTSR1 | ligand displacement, radioligand | – | – | – | IC50 | 0.0093 µM |
| O=C(CC1(O)C(=O)Nc2cc(Cl)cc(Cl)c21)c1ccc2c(c1)OCO2 (stereo not drawn) | ppa | enzyme activity, inhibitor | – | – | – | IC50 | > 100 µM |
| CNS(=O)(=O)Nc1nccc(Cc2c(C)c3ccc(Oc4ncccc4F)cc3oc2=O)c1F | COLO-679 | cell viability | – | 7 days | – | IC50 | 0.00349 µM |
| COc1ccccc1/C=C1\C(=O)Nc2ccc(Nc3nc(C)nc4ccccc34)cc21 | PIK3CD | enzyme activity, inhibitor, ADP detection | – | – | – | IC50 | > 1 µM |
| CCCC[C@H](NC(=O)COCCOCCNC(=O)CN1CCN(CC(=O)O)CCN(CC(=O)O)CC1)C(=O)N[C@H]1CC(=O)NCCCC[C@@H](C(N)=O)NC(=O)[C@H](Cc2c[nH]c3ccccc23)NC(=O)[C@H](CCCNC(=N)N)NC(=O)[C@@H](Cc2ccccc2)NC(=O)[C@H](Cc2c[nH]cn2)NC1=O [technetium-99m labelled] | – | – | C57 mouse, brain | intravenous, 0.037 MBq, 4 h | – | tissue uptake | 0.01 %ID/g |
| Nc1ncc(-c2cc(-c3cnn(CC(F)(F)F)c3)ncc2F)nc1C(=O)NC1CNCC(F)C1 (stereo not drawn) | GRK2 | KINOMEscan | – | 1 µM | relative to: DMSO control | remaining binding | 66% |
| COc1ccccc1C1CCN(c2nc(C3CC3)nc3c(C)cc(N(C)CCO)cc23)CC1 | NTSR1 | G protein activation, antagonist, BRET | – | – | – | IC50 | 6.49 µM |
| Cc1ccc(Nc2cc(NC3CC3)n3ncc(C#N)c3n2)cc1NC(=O)C1CC1 | SGK3 (Homo sapiens, UniProt Q96BR1) | inhibitor | – | – | – | IC50 | > 10 µM |
| COC(=O)Cc1cc2c(cc1C(=O)c1ccccc1Br)OCO2 | Gria1 | ion current, patch clamp | – | – | – | IC50 | 5.51 µM |
| OC1CCCN(CCCNc2cc(-c3ccccc3)nc3ccnn23)C1 (stereo not drawn) | DNA dC->dU-editing enzyme APOBEC-3B | enzyme activity, inhibitor, HPLC | – | – | – | IC50 | 142 µM |
| Fc1ccc(Nc2nc(NC3CCCCC3)c3ccccc3n2)cc1Cl | ADRB2 | β-arrestin recruitment, antagonist | – | – | – | IC50 | 3 µM |
| CC(OC(=O)c1cc2c(s1)CCC2)C(=O)Nc1ccc2c(c1)OCCO2 (stereo not drawn) | Protein tyrosine phosphatase type IVA 3, with CNNM4 CBS domain (PTP4A3, Homo sapiens, UniProt O75365) | protein-protein interaction, inhibitor, HTRF | – | – | – | IC50 | 1.9 µM |
| O=C1CC(c2ccccc2)N1S(=O)(=O)c1cccc(-c2ccccc2)c1 (stereo not drawn) | glpG | substrate cleavage, inhibitor | NR698 | – | – | IC50 | 9.5 µM |
| Cc1cc(C)c(S(=O)(=O)N(CC(=O)O)c2ccc(Nc3ccnc(N4CCCC4)n3)cc2)c(C)c1 | Aurora kinase C (AURKC, Homo sapiens, UniProt Q9UQB9) | enzyme activity, inhibitor | – | – | – | IC50 | > 100 µM |
| Cc1ccc2c(c1Br)C(O)(CC(=O)c1ccc(F)cc1)C(=O)N2 (stereo not drawn) | ppa | enzyme activity, inhibitor | – | – | – | IC50 | > 100 µM |
| C=C(NC(=O)c1csc(-c2nc3c(cc2O)-c2nc(cs2)C(=O)NC(C(C)O)C(=O)NC(=C(C)OC)c2nc(cs2)C(=O)NC2c4nc(cs4)C(=O)NC(COC(=O)c4c5c6c(cccc6n4O)COC(=O)C(OC4CC(C)(O)C(N(C)C)C(C)O4)C2OC5)c2nc-3cs2)n1)C(N)=O (stereo not drawn) | – | – | ICR mice, Streptococcus pneumoniae ATCC 49169 infected, immunocompromised, blood | intravenous, 32 mg/kg/day twice daily | – | AUC(0-inf) | 1820 ng·h/mL |
| COc1ccccc1C1CCN(c2nc(C3CCCC3)nc3ccc(N(C)CCO)cc23)CC1 | NTSR1 | G protein activation, antagonist, BRET | – | – | – | IC50 | 10.2 µM |
| Cc1nn(-c2cccc(N)c2)c(=O)c2cnc(Nc3ccc(N4CCNCC4)cc3)nc12 | PRKG2 (Homo sapiens, UniProt Q13237) | enzyme activity, inhibitor | – | – | – | IC50 | 1.98 µM |
| Clc1cccc(Nc2nc(NC3CCCCC3)c3ccccc3n2)c1 | ADRB2 | β-arrestin recruitment, antagonist | – | – | – | IC50 | 6 µM |
| Cc1ncsc1-c1ccc(C(C)NC(=O)C2CC(O)CN2C(=O)C(NC(=O)CCCCCCCCCCN2CCCC(Nc3ncc(Cl)c(Nc4ccccc4S(=O)(=O)C(C)C)n3)C2)C(C)(C)C)cc1 (stereo not drawn) | 22Rv1 | RNA-seq, refers to: POLD3 mRNA | – | concentration not given | relative to: DMSO | log2 fold change | -1.53 |
| O=C(CCNC(=O)CNC(=O)CC(c1ccccc1)(c1ccccc1)c1ccccc1)NCC1CCN(C(=O)c2ccc(F)cc2)CC1 | CHRM3 (Homo sapiens, UniProt P20309) | ligand displacement, radioligand | – | cell membranes | – | IC50 | > 30 µM |
| O=S1(=O)O[C@@H]2[C@H](CO)[C@@H](O)[C@H](O)[C@@H](O)[C@@H]2O1 | Oligosaccharide 4-alpha-D-glucosyltransferase (agd31B, Cellvibrio japonicus, UniProt B3PEE6) | enzyme activity, inhibitor | – | 30 min preincubation, pH 6.5, 25 °C | – | IC50 | > 100 µM |

| SMILES | target or system | assay | test system | setting | how to read | quantity | value |
| --- | --- | --- | --- | --- | --- | --- | --- |
| CC(C)(C)c1ccc(C2CC(=O)N2S(=O)(=O)c2cccc(Cl)c2)cc1 (stereo not drawn) | glpG | enzyme activity, inhibitor | – | – | – | IC50 | 12 µM |
| COC1CN([C@H]2CC[C@H]([C@@]3(C)Oc4c(Cl)cc(C(=O)NCc5c(SC)cc(C)[nH]c5=O)c(C)c4O3)CC2)C1 | – | RNA-seq, refers to: PROX1 | human, whole blood | dose not given, 24 h | relative to: pretreatment baseline | log2 fold change | 2.4 |
| COc1ccc(C(N)=O)c[n+]1C | NNMT | enzyme activity in cells, inhibitor | – | – | – | IC50 | > 31.6 µM |
| C=C1CC[C@H](OCCCNC(=O)CCOCCOCCOCCOCCOCCOCCOCCOCCOCCOCCOCCOCCOCCOCCOCCOCCOCCOCCOCCOCCOCCOCCOCCOCCOCCOCCOCCOCCOCCOCCOCCOCCOCCOCCOCCOCCNC(=O)CCN2C(=O)CC(SC[C@H](NC(=O)[C@H](Cc3ccccc3)NC(=O)[C@H](CC(N)=O)NC(=O)[C@H](Cc3c[nH]cn3)NC(=O)[C@@H](NC(=O)[C@H](CC(=O)O)NC(=O)[C@H](CCC(N)=O)NC(=O)[C@H](CC(C)C)NC(=O)[C@H](CCCCN)NC(=O)[C@H](CCCCN)NC(=O)[C@H](CCCNC(=N)N)NC(=O)[C@H](CC(C)C)NC(=O)[C@H](Cc3c[nH]c4ccccc34)NC(=O)[C@H](CCC(=O)O)NC(=O)[C@@H](NC(=O)[C@H](CCCNC(=N)N)NC(=O)[C@H](CCC(=O)O)NC(=O)[C@H](CCSC)NC(=O)[C@H](CO)NC(=O)[C@H](CC(N)=O)NC(=O)[C@H](CC(C)C)NC(=O)[C@H](Cc3c[nH]cn3)NC(=O)[C@H](CCCCN)NC(=O)CNC(=O)[C@H](CC(C)C)NC(=O)[C@H](CC(N)=O)NC(=O)[C@H](Cc3c[nH]cn3)NC(=O)[C@H](CCSC)NC(=O)[C@H](CC(C)C)NC(=O)[C@H](CCC(N)=O)NC(=O)[C@@H](NC(=O)[C@H](CCC(=O)O)NC(=O)[C@H](CO)NC(=O)[C@@H](NC(=O)[C@@H](N)CO)C(C)C)[C@@H](C)CC)C(C)C)C(C)C)C(=O)O)C2=O)C/C1=C/C=C1\CCC[C@]2(C)[C@@H]([C@H](C)CCCC(C)(C)O)CC[C@@H]12 (stereo partly drawn) | – | – | male cynomolgus monkey, plasma | subcutaneous, 0.007 mg/kg, single dose | – | AUC(0-t) | 403 ng·h/mL |
| CCC1(O)CCCN(C(=O)c2ccc(-c3ccccc3C(F)(F)F)cc2)C1 (stereo not drawn) | DNA dC->dU-editing enzyme APOBEC-3B | enzyme activity, inhibitor, HPLC | – | – | – | IC50 | 656 µM |
| c1ccc(C2=Nn3c(nnc3C3CCCCC3)SC2)cc1 | Uncharacterized protein | inhibitor, coupled colorimetric | Trypanosoma brucei | – | – | IC50 | > 100 µM |
| N[C@@H](Cc1c[nH]c2ccc(OCc3ccccc3-c3cccs3)cc12)C(=O)O | SLC7A5 (Homo sapiens, UniProt Q01650) | transporter uptake, inhibitor, radiometric | – | – | – | IC50 | 12.1 µM |
| COc1ccc2c(c1OC)C(=O)N(c1ccc(OC(F)(F)F)cc1)C2 | ppa | enzyme activity, inhibitor | – | – | – | IC50 | > 100 µM |
| Fc1ccc(Nc2nc(NC3CCCCC3)c3ccccc3n2)cc1 | ADRB2 | β-arrestin recruitment, antagonist | – | – | – | IC50 | 0.23 µM |
| Cc1ccc(C(N)=O)cn1 | NNMT | enzyme activity, inhibitor | – | – | – | IC50 | 12.6 µM |
| Cc1ccc2c(c1Br)C(O)(CC(=O)c1ccc(C3CCCCC3)cc1)C(=O)N2 (stereo not drawn) | Uncharacterized protein | inhibitor, coupled colorimetric | Trypanosoma brucei | – | – | IC50 | > 100 µM |
| C=CC(=O)Nc1cccc(Cn2ncc3cnc(Nc4cnn(CCOC)c4)nc32)c1 | human p38-alpha | KINOMEscan | – | 100 nM | relative to: control | binding | 100% |
| CCOc1cc(CN2CCC3(CC2)CN(c2ccc(C(=O)O)cc2)C(=O)N3)c(C2CC2)cc1C | SSTR5 (Homo sapiens, UniProt P35346, W261A) | cAMP level, antagonist, GloSensor | AD293 | W261A mutant, bandwidth 6.48, with: CST17 EC80 and forskolin | – | IC50 | 0.0339 µM |
| CC(C)c1ccc(/C=C/C(=O)c2ccc(Br)s2)cc1 | MAOB (Homo sapiens, UniProt P27338) | enzyme activity, inhibitor | – | – | – | IC50 | 0.074 µM |
| COc1ccc(-c2coc3cc(O)cc(O)c3c2=O)cc1 | Cytochrome P450 2C9 (CYP2C9, Homo sapiens, UniProt P11712) | enzyme activity, inhibitor | human, liver microsomes | 15 min | – | IC50 | 17.3 µM |
| CC(C)(C)NC(=O)CC(NC(=O)CCc1ccccc1)C(=O)NCCNC(=O)c1cccc2ccccc12 (stereo not drawn) | Proteasome component C5/PSMB5 | enzyme activity, inhibitor | – | constitutive proteasome β5c | – | IC50 | 1.22 µM |
| COc1ccc(OC)c(C2=Nn3c(nnc3C3CCCCC3)SC2)c1 | Uncharacterized protein | enzyme activity, inhibitor, coupled colorimetric | – | with: E. coli pyrophosphatase coupling | – | IC50 | 43.6 µM |
| CN1CCC[C@@H]1C(=O)N[C@@H](Cc1ccc(-c2ccccc2)cc1)B(O)O | Proteasome component C5/PSMB5 | enzyme activity, inhibitor | – | Tris buffer, with: Ac-WLA-AMC, PA28αβ | – | IC50 | 0.41 ± 0.02 µM |
| COc1ccc(OC)c(C2=Nn3c(nnc3-c3ccco3)SC2)c1 | ppa | enzyme activity, inhibitor | – | – | – | IC50 | > 100 µM |
| CC(C)(C)n1ncc2c(=O)n(Cc3cccc(F)c3)c(NCc3ccc(F)cn3)nc21 | PDE4D (Homo sapiens, UniProt Q08499) | enzyme activity, inhibitor | – | – | – | IC50 | 0.325 µM |
| O=C1/C(=N\c2ccc(Cl)cc2)c2ccccc2N1Cc1ccccc1 | PIK3CD | enzyme activity, inhibitor, ADP detection | – | – | – | IC50 | 0.0603 µM |
| CN1CCCNC(=O)c2cccc(c2)C(=O)NCCCN(C)CCCNc2cccc3c2C(=O)c2cccc(c2C3=O)NCCC1 | SAS | RNA-Seq, refers to: SMC6 mRNA | – | 1 µM, 6 h | relative to: untreated cells | log2 fold change | -0.735 |
| COC(=O)Cc1cc2c(cc1C(=O)c1ccccc1I)OCO2 | Gria1 | ion current, patch clamp | – | – | – | IC50 | 6.02 µM |
| CN(C)c1nc(NCc2ccc3ccccc3c2)c(/N=N/c2ccc(Cl)cc2)c(N(C)C)n1 | Chitinase (OfChi-h, Ostrinia furnacalis, UniProt Q4AE59) | enzyme activity, inhibitor, fluorescence | – | – | – | IC50 | 0.15 µM |
